Assay results from different studies.
Each line is one published result; not all experiments were run side by side.
ACHE: Acetylcholinesterase (ACHE, Homo sapiens, UniProt P22303)
UniProt P22303, sequence (whole entry, looked up): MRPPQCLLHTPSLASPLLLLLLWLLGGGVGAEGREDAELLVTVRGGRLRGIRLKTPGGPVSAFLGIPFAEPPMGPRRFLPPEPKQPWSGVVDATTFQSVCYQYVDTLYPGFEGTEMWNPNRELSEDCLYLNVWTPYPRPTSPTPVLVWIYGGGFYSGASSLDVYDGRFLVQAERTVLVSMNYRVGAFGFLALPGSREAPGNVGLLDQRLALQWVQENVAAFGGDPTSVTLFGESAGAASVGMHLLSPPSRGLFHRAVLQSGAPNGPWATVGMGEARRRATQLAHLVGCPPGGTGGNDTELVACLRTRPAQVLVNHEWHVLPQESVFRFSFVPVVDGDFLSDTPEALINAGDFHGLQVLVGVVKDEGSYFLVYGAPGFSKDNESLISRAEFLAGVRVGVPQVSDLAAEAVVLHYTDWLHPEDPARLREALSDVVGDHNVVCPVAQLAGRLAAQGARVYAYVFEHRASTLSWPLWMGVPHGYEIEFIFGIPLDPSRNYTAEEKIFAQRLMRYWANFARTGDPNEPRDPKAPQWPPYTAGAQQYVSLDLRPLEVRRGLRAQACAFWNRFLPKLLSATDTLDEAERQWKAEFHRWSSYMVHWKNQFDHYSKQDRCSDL
UniProt P53341, sequence (whole entry, looked up): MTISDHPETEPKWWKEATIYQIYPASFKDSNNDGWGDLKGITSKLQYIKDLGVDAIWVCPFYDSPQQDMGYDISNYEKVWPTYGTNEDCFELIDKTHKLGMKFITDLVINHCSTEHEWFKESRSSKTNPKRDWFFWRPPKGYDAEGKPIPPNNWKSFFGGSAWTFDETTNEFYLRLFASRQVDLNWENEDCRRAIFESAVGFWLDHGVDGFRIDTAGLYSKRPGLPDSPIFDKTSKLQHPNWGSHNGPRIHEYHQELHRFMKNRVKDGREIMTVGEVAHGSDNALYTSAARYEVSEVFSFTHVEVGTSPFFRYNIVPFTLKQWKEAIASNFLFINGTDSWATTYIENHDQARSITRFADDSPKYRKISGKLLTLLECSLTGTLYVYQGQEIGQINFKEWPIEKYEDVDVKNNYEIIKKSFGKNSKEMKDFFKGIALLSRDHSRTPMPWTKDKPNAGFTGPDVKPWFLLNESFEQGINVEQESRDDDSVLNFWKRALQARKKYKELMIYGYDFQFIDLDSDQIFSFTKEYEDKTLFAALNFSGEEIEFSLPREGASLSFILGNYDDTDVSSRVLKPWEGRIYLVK
UniProt Q12866, sequence (whole entry, looked up): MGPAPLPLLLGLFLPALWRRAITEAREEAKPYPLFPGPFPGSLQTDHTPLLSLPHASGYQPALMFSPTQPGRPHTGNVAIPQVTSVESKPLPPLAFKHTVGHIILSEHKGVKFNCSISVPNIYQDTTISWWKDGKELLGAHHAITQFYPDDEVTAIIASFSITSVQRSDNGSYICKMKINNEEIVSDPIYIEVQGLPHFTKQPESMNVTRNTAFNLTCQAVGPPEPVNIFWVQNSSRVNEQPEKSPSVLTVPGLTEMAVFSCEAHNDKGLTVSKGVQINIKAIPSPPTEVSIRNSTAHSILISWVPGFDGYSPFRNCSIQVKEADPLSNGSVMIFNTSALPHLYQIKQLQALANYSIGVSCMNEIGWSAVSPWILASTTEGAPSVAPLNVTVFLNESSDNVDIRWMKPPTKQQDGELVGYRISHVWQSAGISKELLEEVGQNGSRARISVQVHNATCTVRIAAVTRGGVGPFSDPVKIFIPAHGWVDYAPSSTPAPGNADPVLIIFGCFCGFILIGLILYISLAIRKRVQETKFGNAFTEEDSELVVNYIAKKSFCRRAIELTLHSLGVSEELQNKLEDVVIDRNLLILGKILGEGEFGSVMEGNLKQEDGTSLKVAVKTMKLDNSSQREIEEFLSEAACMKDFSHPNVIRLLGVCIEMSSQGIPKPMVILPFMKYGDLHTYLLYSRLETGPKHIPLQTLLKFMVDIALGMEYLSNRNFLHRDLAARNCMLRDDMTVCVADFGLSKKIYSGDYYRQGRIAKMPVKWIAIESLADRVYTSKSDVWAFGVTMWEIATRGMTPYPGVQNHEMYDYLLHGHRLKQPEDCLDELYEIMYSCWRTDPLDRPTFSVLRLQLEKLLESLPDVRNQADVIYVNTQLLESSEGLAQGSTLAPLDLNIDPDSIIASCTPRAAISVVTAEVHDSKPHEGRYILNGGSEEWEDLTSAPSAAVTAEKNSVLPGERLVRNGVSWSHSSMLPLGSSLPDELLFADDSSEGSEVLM
UniProt P33533, sequence (whole entry, looked up): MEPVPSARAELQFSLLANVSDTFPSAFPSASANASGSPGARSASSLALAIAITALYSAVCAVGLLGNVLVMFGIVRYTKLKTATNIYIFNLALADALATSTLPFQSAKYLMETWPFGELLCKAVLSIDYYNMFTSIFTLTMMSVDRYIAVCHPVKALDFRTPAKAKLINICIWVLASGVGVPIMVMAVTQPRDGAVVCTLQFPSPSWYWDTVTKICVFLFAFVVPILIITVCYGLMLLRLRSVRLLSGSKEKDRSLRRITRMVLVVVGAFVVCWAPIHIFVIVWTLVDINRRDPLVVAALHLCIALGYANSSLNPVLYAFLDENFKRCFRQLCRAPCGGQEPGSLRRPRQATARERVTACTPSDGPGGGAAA
UniProt P08908, sequence (whole entry, looked up): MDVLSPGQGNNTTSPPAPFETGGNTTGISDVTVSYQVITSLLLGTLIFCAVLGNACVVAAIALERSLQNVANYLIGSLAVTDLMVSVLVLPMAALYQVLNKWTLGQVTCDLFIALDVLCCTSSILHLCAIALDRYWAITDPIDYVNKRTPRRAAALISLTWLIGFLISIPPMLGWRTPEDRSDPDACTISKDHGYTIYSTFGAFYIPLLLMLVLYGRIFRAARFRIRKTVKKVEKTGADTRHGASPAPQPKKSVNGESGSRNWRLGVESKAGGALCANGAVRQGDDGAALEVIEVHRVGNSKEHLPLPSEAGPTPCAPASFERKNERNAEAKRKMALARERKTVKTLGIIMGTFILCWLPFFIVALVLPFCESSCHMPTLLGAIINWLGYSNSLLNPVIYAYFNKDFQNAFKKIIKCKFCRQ
UniProt P28335, sequence (whole entry, looked up): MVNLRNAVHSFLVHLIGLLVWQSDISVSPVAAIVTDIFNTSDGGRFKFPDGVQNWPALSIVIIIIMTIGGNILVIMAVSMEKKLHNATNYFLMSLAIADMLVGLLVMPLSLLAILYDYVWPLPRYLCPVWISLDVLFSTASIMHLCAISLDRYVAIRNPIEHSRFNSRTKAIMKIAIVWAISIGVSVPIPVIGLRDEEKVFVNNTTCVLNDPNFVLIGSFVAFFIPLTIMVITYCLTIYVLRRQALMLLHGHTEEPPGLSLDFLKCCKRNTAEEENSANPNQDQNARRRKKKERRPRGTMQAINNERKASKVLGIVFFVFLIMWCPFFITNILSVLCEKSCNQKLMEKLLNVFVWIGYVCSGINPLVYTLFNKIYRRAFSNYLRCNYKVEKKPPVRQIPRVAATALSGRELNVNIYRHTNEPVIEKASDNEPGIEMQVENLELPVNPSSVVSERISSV
UniProt P42338, sequence (whole entry, looked up): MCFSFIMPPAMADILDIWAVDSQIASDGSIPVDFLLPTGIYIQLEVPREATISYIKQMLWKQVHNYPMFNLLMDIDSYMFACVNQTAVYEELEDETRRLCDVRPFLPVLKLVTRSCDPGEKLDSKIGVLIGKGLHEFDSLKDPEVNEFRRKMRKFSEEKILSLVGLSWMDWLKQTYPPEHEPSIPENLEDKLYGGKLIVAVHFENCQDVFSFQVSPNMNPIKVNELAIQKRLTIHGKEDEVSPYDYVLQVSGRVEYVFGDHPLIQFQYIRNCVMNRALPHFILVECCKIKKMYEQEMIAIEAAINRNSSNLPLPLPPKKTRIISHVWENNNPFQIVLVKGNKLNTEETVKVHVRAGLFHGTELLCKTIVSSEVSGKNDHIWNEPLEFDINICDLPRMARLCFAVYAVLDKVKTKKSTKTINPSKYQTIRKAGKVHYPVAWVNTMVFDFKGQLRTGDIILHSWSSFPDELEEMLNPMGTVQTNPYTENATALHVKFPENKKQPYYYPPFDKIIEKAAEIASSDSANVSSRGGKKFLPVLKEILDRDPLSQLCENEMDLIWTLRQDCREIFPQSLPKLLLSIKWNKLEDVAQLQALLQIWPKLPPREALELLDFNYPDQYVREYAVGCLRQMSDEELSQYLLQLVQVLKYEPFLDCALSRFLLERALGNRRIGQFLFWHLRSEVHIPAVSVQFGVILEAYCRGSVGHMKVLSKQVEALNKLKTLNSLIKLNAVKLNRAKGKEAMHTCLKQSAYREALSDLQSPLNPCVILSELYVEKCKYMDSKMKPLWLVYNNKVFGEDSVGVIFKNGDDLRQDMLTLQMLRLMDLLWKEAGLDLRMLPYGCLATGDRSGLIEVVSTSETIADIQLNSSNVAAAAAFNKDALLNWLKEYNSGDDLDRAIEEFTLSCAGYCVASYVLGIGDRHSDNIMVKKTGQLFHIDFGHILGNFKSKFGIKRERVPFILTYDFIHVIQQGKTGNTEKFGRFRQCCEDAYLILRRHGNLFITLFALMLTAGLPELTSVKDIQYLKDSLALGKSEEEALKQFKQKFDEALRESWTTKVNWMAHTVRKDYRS
UniProt P35462, sequence (whole entry, looked up): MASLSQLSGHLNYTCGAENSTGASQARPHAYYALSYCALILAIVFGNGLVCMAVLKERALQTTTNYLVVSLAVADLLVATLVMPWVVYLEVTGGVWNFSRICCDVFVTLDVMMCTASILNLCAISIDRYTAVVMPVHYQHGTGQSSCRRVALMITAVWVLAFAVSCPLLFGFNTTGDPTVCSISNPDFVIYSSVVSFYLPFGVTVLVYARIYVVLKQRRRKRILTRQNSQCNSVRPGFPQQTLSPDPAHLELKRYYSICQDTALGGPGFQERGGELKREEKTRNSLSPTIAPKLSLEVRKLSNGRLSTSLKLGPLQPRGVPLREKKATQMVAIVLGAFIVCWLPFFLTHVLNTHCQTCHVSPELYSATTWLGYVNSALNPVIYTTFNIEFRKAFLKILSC

CCc1ccc(N2C(=O)/C(=C3/C(=O)N(C)c4ccc(Cl)cc43)NC2=S)cc1
inhibition (ACHE; enzyme activity, inhibitor, Ellman; 1 µM): 70%

Cc1ncc2c(n1)[C@H](C)[C@@H]1C[C@H]2[C@@](C)(O)CN1Cc1ccccc1
inhibition (Oprd1 (Rattus norvegicus, UniProt P33533); ligand displacement, radioligand; 1 µM): 0%

COc1cc(/C=C/C(=O)O)ccc1OCc1cn(CC(=O)Nc2ccc([N+](=O)[O-])cc2)nn1
inhibition (ACHE; enzyme activity, inhibitor, Ellman; 40 µM): 37.6%

CC(C)C[C@H](NC(=O)[C@H](Cc1ccc(O)cc1)NC(=O)[C@@H](N)C(C)C)C(=O)N[C@@H](CCC(=O)O)C(=O)N[C@@H](CCC(N)=O)C(=O)O
inhibition (ACE (Homo sapiens, UniProt P12821); enzyme activity, inhibitor, absorbance; 16 mM): ~98.5%

C[C@H]1O[C@H](O[C@H]2[C@H](O)[C@@H](O)[C@@H](O[C@H]3[C@H](O)[C@@H](O)C(O)O[C@@H]3CO)O[C@@H]2CO)[C@H](O)[C@@H](O)[C@@H]1N[C@H]1C=C(CO)[C@@H](O)[C@H](O)[C@H]1O (stereo partly shown)
inhibition (MAL12 (Saccharomyces cerevisiae S288c, UniProt P53341); enzyme activity, inhibitor, absorbance; 40 µg/mL): 36.4%

[2H]c1c([2H])c([C@]2([2H])CCCN2C(=O)C(C)(C)Oc2ccc3cn[nH]c3c2)c([2H])c([2H])c1C([2H])([2H])[2H]
remaining binding (NTRK3 (Homo sapiens, UniProt Q16288); binding, competition with immobilised ligand; 1 µM): 75%

Nc1ccncc1
inhibition (SCN1A (Homo sapiens, UniProt P35498); ion current, inhibitor, patch clamp; 10 µM): -57.8%

CN1CCC[C@H]1c1cccnc1
inhibition (HTR1A (Homo sapiens, UniProt P08908); ligand displacement; 50 µM): 1.47%

O=c1cc(N2CCOCC2)oc2c(-c3ccccc3)cccc12
inhibition (PIK3CB (Homo sapiens, UniProt P42338); enzyme activity, inhibitor, ADP detection; 10 µM): 81.7%

C#Cc1n[nH]c2c(-c3cn([C@@H](C)c4ccccn4)c(=O)[nH]c3=O)cc(F)cc12
inhibition (MERTK (Homo sapiens, UniProt Q12866); enzyme activity, inhibitor; 0.1 µM): 75.3%

COc1cc(/C=C/C(=O)O)ccc1OCc1cn(CC(=O)NCCc2ccccc2)nn1
inhibition (ACHE; enzyme activity, inhibitor, Ellman; 40 µM): 18.4%

CCOC(=O)c1cn(CC)c2cc(N3CCCCCC3)c(F)cc2c1=O
IC50 (PFF0160c (Plasmodium falciparum, UniProt Q08210, E182D); enzyme activity, inhibitor, absorbance): > 10000 nM

COc1cc(/C=C/C(=O)O)ccc1OCc1cn(CC(=O)Nc2ccc(Cl)cc2)nn1
inhibition (ACHE; enzyme activity, inhibitor, Ellman; 40 µM): 34.8%

c1cncc([C@@H]2CCCN2)c1
inhibition (DRD3 (Homo sapiens, UniProt P35462); ligand displacement; 50 µM): 11.5%

COc1cc(/C=C/C(=O)O)ccc1OCc1cn(CC(=O)Nc2cccc(Cl)c2)nn1
inhibition (ACHE; enzyme activity, inhibitor, Ellman; 40 µM): 25.5%

COc1cc2c(cc1OC)-c1c(OC)c(OC)cc3c1[C@H](C2)N(C)CC3 (racemic)
inhibition (HTR2C (Homo sapiens, UniProt P28335); ligand displacement, radioligand; 10 µM): 31%

COc1cc(/C=C/C(=O)O)ccc1OCc1cn(CC(=O)Nc2ccc(Cl)cc2Cl)nn1
inhibition (ACHE; enzyme activity, inhibitor, Ellman; 40 µM): 26.1%

Cc1ccc(N2CCc3c(-c4cc5cccnc5nc4C)cc(C)nc32)c(Cl)c1
IC50 (PFF0160c (Plasmodium falciparum, UniProt Q08210); enzyme activity, inhibitor, absorbance): 567 nM

COc1cc(/C=C/C(=O)O)ccc1OCc1cn(CC(=O)Nc2ccc(O)cc2)nn1
inhibition (ACHE; enzyme activity, inhibitor, Ellman; 40 µM): 30%

CC(C)CC(=O)OC[C@H]1O[C@@](C#N)(c2ccc3c(N)ncnn23)[C@H](O)[C@@H]1O
inhibition (PTGS2 (Homo sapiens, UniProt P35354); enzyme activity, inhibitor; 20 µM): 14%

CN1C(=O)/C(=N\Nc2ncc(-c3cc4ccccc4oc3=O)s2)c2cc(Cl)ccc21
inhibition (ACHE; enzyme activity, inhibitor, Ellman; 10 µM): 97%

COc1cc(/C=C/C(=O)O)ccc1OCc1cn(CC(=O)Nc2ccccc2)nn1
inhibition (ACHE; enzyme activity, inhibitor, Ellman; 40 µM): 6.43%

COc1cc2c(cc1OC)C(=O)N(CC1CCNC1)C2 (stereo not shown)
inhibition (Cholinesterase (BCHE, Equus caballus, UniProt P81908); enzyme activity, inhibitor, Ellman; 1 µM): 6.1%

CN1C(=S)N(c2ccccc2)C(=O)/C1=C1/C(=O)N(C)c2ccc(Cl)cc21
inhibition (ACHE; enzyme activity, inhibitor, Ellman; 50 nM): 5%

CC(C)C[C@H]1C(=O)N2CCC[C@H]2[C@]2(O)O[C@](NC(=O)[C@@H]3C=C4c5cccc6[nH]c(Br)c(c56)C[C@H]4[N+](C)(C)C3)(C(C)C)C(=O)N12
inhibition (HTR2A (Homo sapiens, UniProt P28223); ligand displacement, radioligand; 10 µM): 96.8%

For quick reference, copied from above:
C#Cc1n[nH]c2c(-c3cn([C@@H](C)c4ccccn4)c(=O)[nH]c3=O)cc(F)cc12
inhibition (MERTK (Homo sapiens, UniProt Q12866); enzyme activity, inhibitor; 0.1 µM): 75.3%

COc1cc(/C=C/C(=O)O)ccc1OCc1cn(CC(=O)NCCc2ccccc2)nn1
inhibition (ACHE; enzyme activity, inhibitor, Ellman; 40 µM): 18.4%

CCOC(=O)c1cn(CC)c2cc(N3CCCCCC3)c(F)cc2c1=O
IC50 (PFF0160c (Plasmodium falciparum, UniProt Q08210, E182D); enzyme activity, inhibitor, absorbance): > 10000 nM
